Results pooled from the literature.
Each numbered part is a random draw from the data of one study; scales do not carry over between parts.
Sequence of UniProt Q56UN5 (whole entry, looked up): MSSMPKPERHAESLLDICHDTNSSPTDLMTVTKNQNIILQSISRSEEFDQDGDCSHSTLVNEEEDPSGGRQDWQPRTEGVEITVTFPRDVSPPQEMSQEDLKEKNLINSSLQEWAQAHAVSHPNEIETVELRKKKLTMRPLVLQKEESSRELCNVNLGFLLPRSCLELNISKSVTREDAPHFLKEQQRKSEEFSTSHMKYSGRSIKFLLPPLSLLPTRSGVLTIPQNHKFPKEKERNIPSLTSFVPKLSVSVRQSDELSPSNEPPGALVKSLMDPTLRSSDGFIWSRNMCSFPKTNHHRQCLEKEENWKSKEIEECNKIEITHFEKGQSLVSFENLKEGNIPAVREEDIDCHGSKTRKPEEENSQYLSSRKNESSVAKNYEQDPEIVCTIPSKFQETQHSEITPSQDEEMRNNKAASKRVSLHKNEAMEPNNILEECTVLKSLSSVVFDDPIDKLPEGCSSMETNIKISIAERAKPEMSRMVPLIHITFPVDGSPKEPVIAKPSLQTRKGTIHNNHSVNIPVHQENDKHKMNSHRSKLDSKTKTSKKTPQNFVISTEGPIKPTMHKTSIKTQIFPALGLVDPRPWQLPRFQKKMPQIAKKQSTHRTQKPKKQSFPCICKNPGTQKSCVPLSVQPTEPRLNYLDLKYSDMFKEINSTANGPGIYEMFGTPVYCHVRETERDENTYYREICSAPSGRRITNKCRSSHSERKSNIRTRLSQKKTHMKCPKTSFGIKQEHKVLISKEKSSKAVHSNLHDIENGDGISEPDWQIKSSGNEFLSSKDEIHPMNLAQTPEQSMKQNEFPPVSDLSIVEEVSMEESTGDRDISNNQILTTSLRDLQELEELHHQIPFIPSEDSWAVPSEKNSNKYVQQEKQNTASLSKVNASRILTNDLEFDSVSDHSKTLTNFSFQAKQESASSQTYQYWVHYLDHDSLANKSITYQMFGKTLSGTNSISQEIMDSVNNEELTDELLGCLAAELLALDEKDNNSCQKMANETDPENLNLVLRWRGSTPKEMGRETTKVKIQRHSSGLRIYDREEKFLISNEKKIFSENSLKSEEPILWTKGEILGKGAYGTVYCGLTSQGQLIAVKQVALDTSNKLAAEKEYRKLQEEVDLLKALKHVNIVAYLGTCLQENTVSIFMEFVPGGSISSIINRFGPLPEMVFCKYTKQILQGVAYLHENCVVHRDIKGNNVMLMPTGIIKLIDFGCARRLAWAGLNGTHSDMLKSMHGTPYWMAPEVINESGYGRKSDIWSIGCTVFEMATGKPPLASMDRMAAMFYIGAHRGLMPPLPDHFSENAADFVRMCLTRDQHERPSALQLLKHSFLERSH
Sequence of UniProt O95382 (whole entry, looked up): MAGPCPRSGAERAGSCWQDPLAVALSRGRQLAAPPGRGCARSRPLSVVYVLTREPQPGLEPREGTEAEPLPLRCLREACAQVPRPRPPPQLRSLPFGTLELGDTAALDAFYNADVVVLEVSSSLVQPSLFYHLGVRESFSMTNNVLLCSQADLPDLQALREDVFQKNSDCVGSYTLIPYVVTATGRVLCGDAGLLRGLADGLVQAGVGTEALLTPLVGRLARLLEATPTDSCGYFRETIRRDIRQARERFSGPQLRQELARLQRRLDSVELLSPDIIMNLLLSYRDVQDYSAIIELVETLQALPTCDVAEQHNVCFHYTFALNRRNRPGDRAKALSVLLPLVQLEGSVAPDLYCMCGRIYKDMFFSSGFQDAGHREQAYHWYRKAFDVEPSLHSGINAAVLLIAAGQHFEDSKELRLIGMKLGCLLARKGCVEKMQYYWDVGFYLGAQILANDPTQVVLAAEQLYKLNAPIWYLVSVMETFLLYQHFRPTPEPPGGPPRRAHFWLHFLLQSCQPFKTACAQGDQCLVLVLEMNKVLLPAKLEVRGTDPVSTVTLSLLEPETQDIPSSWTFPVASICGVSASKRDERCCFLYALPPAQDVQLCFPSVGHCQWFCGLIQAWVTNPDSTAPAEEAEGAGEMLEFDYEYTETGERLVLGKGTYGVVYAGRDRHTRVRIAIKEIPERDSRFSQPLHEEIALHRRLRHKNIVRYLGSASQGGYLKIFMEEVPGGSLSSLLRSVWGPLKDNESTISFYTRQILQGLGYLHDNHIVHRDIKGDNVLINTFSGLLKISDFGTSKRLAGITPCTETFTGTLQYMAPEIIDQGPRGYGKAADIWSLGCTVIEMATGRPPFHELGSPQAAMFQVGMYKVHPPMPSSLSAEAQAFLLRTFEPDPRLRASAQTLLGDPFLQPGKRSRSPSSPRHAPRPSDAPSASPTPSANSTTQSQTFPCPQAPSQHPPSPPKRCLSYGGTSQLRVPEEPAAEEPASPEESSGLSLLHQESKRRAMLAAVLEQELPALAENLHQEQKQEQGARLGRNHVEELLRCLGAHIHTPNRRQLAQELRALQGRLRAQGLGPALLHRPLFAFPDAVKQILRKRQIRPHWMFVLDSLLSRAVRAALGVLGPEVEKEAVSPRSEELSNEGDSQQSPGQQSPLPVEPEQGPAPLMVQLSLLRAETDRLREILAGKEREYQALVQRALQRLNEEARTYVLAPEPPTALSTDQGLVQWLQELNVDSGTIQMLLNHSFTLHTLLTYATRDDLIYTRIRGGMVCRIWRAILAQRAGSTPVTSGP
Sequence of UniProt O75676 (whole entry, looked up): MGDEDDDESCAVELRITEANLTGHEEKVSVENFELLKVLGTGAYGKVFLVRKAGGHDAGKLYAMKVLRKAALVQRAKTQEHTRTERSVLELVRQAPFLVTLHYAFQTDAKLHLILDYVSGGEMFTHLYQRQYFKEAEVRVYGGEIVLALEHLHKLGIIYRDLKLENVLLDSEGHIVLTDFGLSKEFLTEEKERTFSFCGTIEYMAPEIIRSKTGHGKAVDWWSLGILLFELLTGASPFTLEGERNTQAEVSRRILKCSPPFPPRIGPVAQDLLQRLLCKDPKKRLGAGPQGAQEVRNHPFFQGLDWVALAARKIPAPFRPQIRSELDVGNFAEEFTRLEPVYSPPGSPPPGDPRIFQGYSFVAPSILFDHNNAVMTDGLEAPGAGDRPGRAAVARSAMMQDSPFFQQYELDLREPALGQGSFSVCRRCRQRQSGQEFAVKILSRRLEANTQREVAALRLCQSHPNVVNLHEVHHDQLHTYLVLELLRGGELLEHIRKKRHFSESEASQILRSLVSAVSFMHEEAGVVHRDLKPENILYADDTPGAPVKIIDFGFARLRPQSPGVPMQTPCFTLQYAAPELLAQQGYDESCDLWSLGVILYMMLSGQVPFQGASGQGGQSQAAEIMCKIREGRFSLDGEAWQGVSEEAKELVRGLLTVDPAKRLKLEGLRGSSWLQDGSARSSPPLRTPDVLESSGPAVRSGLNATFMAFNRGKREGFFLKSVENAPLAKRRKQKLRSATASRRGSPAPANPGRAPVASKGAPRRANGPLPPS
Sequence of UniProt P49841 (whole entry, looked up): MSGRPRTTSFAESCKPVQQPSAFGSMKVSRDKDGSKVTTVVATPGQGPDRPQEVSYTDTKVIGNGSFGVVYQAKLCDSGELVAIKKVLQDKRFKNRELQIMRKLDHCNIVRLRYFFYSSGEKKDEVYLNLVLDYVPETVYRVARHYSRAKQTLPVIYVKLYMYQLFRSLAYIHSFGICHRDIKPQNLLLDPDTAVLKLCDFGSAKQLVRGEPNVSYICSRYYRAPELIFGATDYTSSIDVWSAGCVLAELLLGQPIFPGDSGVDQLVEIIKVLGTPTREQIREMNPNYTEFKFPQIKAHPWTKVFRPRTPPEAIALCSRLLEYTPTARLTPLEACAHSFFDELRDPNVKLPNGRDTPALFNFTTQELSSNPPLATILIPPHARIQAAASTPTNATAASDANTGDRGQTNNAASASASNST

Set 1
Target: Beta-1 adrenergic receptor (ADRB1, Homo sapiens, UniProt P08588)
Sequence of UniProt P08588 (whole entry, looked up): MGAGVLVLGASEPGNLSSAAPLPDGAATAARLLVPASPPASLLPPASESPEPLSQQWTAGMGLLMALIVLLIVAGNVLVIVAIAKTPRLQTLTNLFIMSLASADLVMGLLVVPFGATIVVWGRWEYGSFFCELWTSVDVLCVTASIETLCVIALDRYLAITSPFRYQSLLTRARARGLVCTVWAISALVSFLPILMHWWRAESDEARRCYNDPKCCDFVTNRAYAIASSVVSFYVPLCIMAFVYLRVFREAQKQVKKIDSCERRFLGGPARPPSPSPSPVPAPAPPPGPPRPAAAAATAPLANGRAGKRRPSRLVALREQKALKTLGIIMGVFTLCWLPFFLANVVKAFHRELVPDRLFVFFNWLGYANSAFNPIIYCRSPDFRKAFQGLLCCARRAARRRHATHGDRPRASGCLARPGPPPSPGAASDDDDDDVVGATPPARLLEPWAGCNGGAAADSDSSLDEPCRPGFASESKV
Action: agonist
SMILES | EC50 [µM]
COc1cc2nc(-c3cc4c(c(OC)c3)OCCNC4)cc(C)c2cc1OC | ≥ 100
NCCn1cc(C(=O)NCC(O)c2ccccc2C(F)(F)F)nn1 (stereo not drawn) | ≥ 100
CCC(c1ccccc1)N1CCN(CC(C)O)CC1 (stereo not drawn) | ≥ 100
CN(C)c1cccc(C(=O)N2CC(COc3ccccc3)C3(C2)CN(C(=O)c2cn[nH]c2)C3)c1 (stereo not drawn) | ≥ 100
O=c1ncn(CCC(F)(F)F)c2ccc(-c3ccccc3)nc12 | ≥ 100
CC(C)CN(C)C(=O)c1cc(-c2cnn(C(C)C)c2)nc2ccc(F)cc12 | ≥ 100

Set 2
SMILES: C[C@H](NC(=O)c1cnc2n1[C@](C)(Cc1ccc(C#N)cc1)C(=O)N2c1cc(Cl)c(F)c(Cl)c1)C(=O)NC1(c2ccccn2)CC1
Effect on: cell-free assay
Method: competition with immobilised ligand
Tested at: 1 µM
target | remaining binding
Serine/threonine-protein kinase D3 (PRKD3, Homo sapiens, UniProt O94806) | 100%
Mitogen-activated protein kinase kinase kinase 6 (MAP3K6, Homo sapiens, UniProt O95382) | 100%
Epidermal growth factor receptor (EGFR, Homo sapiens, UniProt P00533, del747-750/T751S) | 100%
Dual specificity mitogen-activated protein kinase kinase 1 (MAP2K1, Homo sapiens, UniProt Q02750) | 92%
LIM domain kinase 2 (LIMK2, Homo sapiens, UniProt P53671) | 100%
MAP kinase-interacting serine/threonine-protein kinase 2 (MKNK2, Homo sapiens, UniProt Q9HBH9) | 100%
Hepatocyte growth factor receptor (MET, Homo sapiens, UniProt P08581, M1250T) | 100%
Dual specificity tyrosine-phosphorylation-regulated kinase 1B (DYRK1B, Homo sapiens, UniProt Q9Y463) | 100%
Mitogen-activated protein kinase kinase kinase 4 (MAP3K4, Homo sapiens, UniProt Q9Y6R4) | 97%
Ribosomal protein S6 kinase alpha-4, N-terminal kinase domain (RPS6KA4, Homo sapiens, UniProt O75676) | 63%
Glycogen synthase kinase-3 beta (GSK3B, Homo sapiens, UniProt P49841) | 100%
Mitogen-activated protein kinase kinase kinase 19 (MAP3K19, Homo sapiens, UniProt Q56UN5) | 100%
Dual specificity protein kinase TTK (TTK, Homo sapiens, UniProt P33981) | 100%

Set 3
Target: Serine/threonine-protein kinase Sgk3 (SGK3, Homo sapiens, UniProt Q96BR1)
Effect on: enzyme activity
Action: inhibitor
Tested at: 0.5 µM
Reference: control
Construct (Q96BR1 1-496): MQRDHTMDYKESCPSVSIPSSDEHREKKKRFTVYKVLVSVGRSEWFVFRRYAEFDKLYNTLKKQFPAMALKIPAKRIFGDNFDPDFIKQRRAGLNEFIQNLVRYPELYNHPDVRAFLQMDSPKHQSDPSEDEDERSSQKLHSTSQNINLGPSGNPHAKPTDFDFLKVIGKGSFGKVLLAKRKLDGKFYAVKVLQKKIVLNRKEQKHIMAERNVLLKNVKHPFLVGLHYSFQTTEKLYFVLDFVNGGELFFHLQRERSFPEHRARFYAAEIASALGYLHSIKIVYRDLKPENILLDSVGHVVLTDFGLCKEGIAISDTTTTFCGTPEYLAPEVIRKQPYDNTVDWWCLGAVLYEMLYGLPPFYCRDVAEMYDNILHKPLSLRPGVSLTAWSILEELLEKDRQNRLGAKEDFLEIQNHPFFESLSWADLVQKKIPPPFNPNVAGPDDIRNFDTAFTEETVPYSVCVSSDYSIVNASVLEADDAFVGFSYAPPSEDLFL
SMILES | remaining activity [%]
Nc1nccc(-c2c(-c3ccc(F)cc3)ncn2C2CCNCC2)n1 | 97.5
CC(C)(C)n1nc(Cc2cccc3ccccc23)c2c(N)ncnc21 | 97.8
O=C1NC(=O)C(c2c[nH]c3ccccc23)=C1c1c[nH]c2ccccc12 | 97.9
Cc1ccc(NC2=CC(=O)c3sc(C)nc3C2=O)cc1 | 95.2
NC(=O)c1ccc(N(C(N)=O)c2c(F)cccc2F)nc1-c1ccc(F)cc1F | 99.9
Fc1ccc(-c2nc3n(c2-c2ccncc2)CCS3)cc1 | 95.8
O=C1Cc2c([nH]c3ccc([N+](=O)[O-])cc23)-c2ccccc2N1 | 102
Oc1ccc(Nc2nc(-c3ccc(Cl)cc3)cs2)cc1 | 98
COc1ccc(S(=O)(=O)N(CCO)c2ccccc2CN(C)CC=Cc2ccc(Cl)cc2)cc1 | 106
O=S(=O)(NCCNC/C=C/c1ccc(Br)cc1)c1cccc2cnccc12 | 78.8

Set 4
Species: human
Sample: microsomes or S9
Tested at: 2 µM
Time: 0.5 h
SMILES | remaining compound [%]
Cc1nnc2c(N3CCN(C(=O)c4n[nH]c5c4CCCC5)CC3)nccn12 | 0
Cc1cc(C)c(S(=O)(=O)N2CCN(c3cc(C)nc(N4CCCC4)n3)CC2)c(C)c1 | 0.0567
O=C(NCC1CCCO1)c1ccc(NC(=O)c2nc(-n3cnnc3)ccc2Br)cc1 (stereo not drawn) | 92.4
CS(=O)(=O)c1nc(-c2ccc(Br)cc2)n[nH]1 | 89.9
CNC(=O)c1cc(Br)nn1-c1ncccc1Cl | > 100
COc1ccc(OC)c(NC(=O)c2cc3sccc3n2Cc2ccccc2)c1 | 61
Cc1c(-c2noc(-c3cnn(C)c3C)c2Cl)cnn1C | 0.201

Repeated from above (set 2):
target | remaining binding
Mitogen-activated protein kinase kinase kinase 4 (MAP3K4, Homo sapiens, UniProt Q9Y6R4) | 97%
MAP kinase-interacting serine/threonine-protein kinase 2 (MKNK2, Homo sapiens, UniProt Q9HBH9) | 100%
Serine/threonine-protein kinase D3 (PRKD3, Homo sapiens, UniProt O94806) | 100%
